{"data": "Measurements collected from several papers", "medium": "plasma", "note": "Each line is one published result; not all experiments were run side by side."}
{"SMILES": "CNC(=O)C1CCCN(C(=O)C2CC3CCC2N3C(=O)[C@@H]2C[C@@H](O)CN2C(=O)NCc2cccc(Cl)c2F)C1 (mixture of isomers)", "species": "rat", "route": "intravenous", "dose": "2.5 mg/kg", "Vd": "0.86 L/kg"}
{"SMILES": "C/C(N)=N/C(=N\\S(=O)(=O)c1ccc(C(F)(F)F)cc1)N1C[C@H](c2ccccc2)C(c2ccc(Cl)cc2)=N1", "species": "male Sprague-Dawley rat", "route": "intravenous", "dose": "2 mg/kg", "Vd": "4.2 L/kg"}
{"SMILES": "CCC1(CC)CC(=O)N(C2CCOc3ccc(C(=O)NC4CC(C)(C)Oc5ccccc54)cc32)C(=N)N1 (stereo not shown)", "species": "male Wistar rat", "route": "intravenous", "Vd": "9.2 L/kg"}
{"SMILES": "O=C(C1CCN(c2nnnn2-c2ccccc2)CC1)N1CCCc2ccccc21", "species": "male Sprague-Dawley rat", "route": "intravenous", "dose": "1 mg/kg", "Vd": "1.03 L/kg"}
{"SMILES": "CN1CCC[C@@H]1C(=O)N[C@@H](Cc1ccc(-c2ccccc2)cc1)B(O)O", "species": "male Sprague-Dawley rat", "route": "intravenous", "dose": "1 mg/kg", "Vd": "2.1 L/kg"}
{"SMILES": "CC1(C)C(NC(=O)C(=NOC2(C(=O)O)CCC2)c2csc(N)n2)C(=O)N1OS(=O)(=O)O (stereo not shown)", "species": "rat", "route": "intravenous", "dose": "10 mg/kg", "notes": "single dose", "Vd": "0.19 L/kg"}
{"SMILES": "Cc1[nH]nc2c1N=C(c1ccccc1Cl)c1cnc(N3CCOCC3)cc1N2", "species": "male Sprague-Dawley rat", "route": "intravenous", "dose": "1 mg/kg", "Vd": "4.34 L/kg"}
{"SMILES": "Cc1cc2c(cc1O)C=C1C=CC(=O)C(C)(C)[C@H]1CC2", "species": "male Sprague-Dawley rat", "route": "oral", "dose": "20 mg/kg", "Vd": "4560 L/kg"}
{"SMILES": "CC(C)(C)C(=O)Nc1ccc2[nH]c(CN3CCC(N(CCCN4CCOCC4)CC4OC(n5cnc6c(N)ncnc65)C(O)C4O)CC3)nc2c1 (stereo not shown)", "species": "male Sprague-Dawley rat", "route": "intravenous", "dose": "20 mg/kg", "Vd": "14.9 L/kg"}
{"SMILES": "O=c1c(-c2ccc(Cl)c(CN3CCOCC3)c2)coc2cc(O)ccc12", "species": "male Sprague-Dawley rat", "route": "intravenous", "dose": "2 mg/kg", "Vd": "12.7 L/kg"}
{"SMILES": "CCOP(=O)(CC(=O)Nc1ccc(S(=O)(=O)N(CC(N)=O)c2ccc(N(CC(N)=O)S(=O)(=O)c3ccc(OC)cc3)c3ccccc23)cc1)OCC", "species": "male Wistar rat", "route": "intravenous", "dose": "28 mg/kg", "notes": "single dose", "Vd": "2.16 L/kg"}
{"SMILES": "COc1cc(OC)c2c(=O)cc(-c3cc(C)c(OCCCN4CCN(C)CC4)c(C)c3)oc2c1", "species": "male Sprague-Dawley rat", "route": "intravenous", "dose": "10 mg/kg", "notes": "single dose", "Vd": "11.4 L/kg"}
{"SMILES": "CCC(CC)n1c(Cc2ccco2)nc2cc(C(=O)N[C@@H](CC(=O)O)c3ccccc3)ccc21", "species": "male Sprague-Dawley rat", "route": "intravenous", "dose": "1 mg/kg", "Vd": "8 L/kg"}
{"note": "Some of these lines once more:"}
{"SMILES": "COc1cc(OC)c2c(=O)cc(-c3cc(C)c(OCCCN4CCN(C)CC4)c(C)c3)oc2c1", "species": "male Sprague-Dawley rat", "route": "intravenous", "dose": "10 mg/kg", "notes": "single dose", "Vd": "11.4 L/kg"}
